# Results from different studies.
# Numbered parts are unrelated; each lists some results of a single study.

# Study 1 — method: universal PBM; molecule type: double-stranded DNA, one strand shown; matrix: in vitro; tested at: 600 nM; direction: higher = stronger binding
# Target: Sal-like protein 4, full length isoform A (SALL4, Homo sapiens, UniProt Q9UJQ4, residues 1-1053)
# Sequence of UniProt Q9UJQ4 (whole entry, looked up): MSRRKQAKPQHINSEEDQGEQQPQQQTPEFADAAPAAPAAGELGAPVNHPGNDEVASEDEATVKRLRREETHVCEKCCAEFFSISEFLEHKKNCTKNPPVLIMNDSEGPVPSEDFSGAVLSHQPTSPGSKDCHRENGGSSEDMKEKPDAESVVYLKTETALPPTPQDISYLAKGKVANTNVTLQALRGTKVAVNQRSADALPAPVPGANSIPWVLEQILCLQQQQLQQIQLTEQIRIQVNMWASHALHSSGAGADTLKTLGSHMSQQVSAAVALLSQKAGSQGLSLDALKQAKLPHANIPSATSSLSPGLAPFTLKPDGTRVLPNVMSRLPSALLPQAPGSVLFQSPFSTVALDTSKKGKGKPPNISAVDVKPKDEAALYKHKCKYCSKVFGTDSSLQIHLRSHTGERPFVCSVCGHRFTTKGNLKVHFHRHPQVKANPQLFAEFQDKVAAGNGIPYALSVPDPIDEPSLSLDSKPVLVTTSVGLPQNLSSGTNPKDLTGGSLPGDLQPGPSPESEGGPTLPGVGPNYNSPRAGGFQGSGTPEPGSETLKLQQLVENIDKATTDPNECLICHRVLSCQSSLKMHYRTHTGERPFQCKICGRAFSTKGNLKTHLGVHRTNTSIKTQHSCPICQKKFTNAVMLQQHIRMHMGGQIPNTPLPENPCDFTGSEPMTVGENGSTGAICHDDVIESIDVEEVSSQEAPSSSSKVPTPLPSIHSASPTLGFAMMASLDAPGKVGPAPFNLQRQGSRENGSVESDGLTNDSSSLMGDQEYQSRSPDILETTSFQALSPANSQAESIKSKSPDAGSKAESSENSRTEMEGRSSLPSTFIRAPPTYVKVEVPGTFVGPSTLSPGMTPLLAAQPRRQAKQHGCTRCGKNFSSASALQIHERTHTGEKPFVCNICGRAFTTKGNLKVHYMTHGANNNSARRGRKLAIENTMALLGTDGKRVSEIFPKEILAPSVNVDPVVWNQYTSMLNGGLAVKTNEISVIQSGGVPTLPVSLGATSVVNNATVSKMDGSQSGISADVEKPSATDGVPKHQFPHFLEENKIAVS
# Setting: 8-mer, flanks averaged, mean of replicates
Sequence,E-score
CACATGCG,-0.194
AATTGATG,0.322
ACAAACAC,0.135
AGGCCCAG,-0.254
AGGCCATG,-0.188
TCCGACCA,-0.065
AAGCAATT,0.315
CTCGGGGC,-0.329
TCCCTCCA,-0.213
GTGCTGCA,-0.0623
ACTTGTGA,0.16
CATTGTCA,0.131
AAAGTATT,0.325
ATGCCGCC,-0.235
CGAGCAAA,-0.102
TCCACGCA,-0.0783

# Study 2 — method: protein binding microarray; molecule type: double-stranded DNA, one strand shown; matrix: in vitro; tested at: not given; relative to: not given; direction: higher = stronger binding
# Target: Histone acetyltransferase KAT6A, winged helix 1, GST fusion (KAT6A, Homo sapiens, UniProt Q92794, residues 1-85)
# Setting: 8-mer, flanks averaged, mean of 2 arrays, mostly near background
# Residues (chain): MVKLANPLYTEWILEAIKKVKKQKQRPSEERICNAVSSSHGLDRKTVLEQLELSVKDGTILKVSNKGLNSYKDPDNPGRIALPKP
Sequence,E-score
CGGGGAGC,0.261
ACCTGGGG,-0.133
ATGGCAAT,-0.163
CAAAAACA,-0.148
ACTACTAA,-0.0167
GTCTAAGA,-0.0565
AGAAGGTG,-0.273
AGAGGTAC,-0.0966
CAGCGCTA,0.276
GGCTATAA,0.0049
CTGTCTCC,-0.0122
GGCGTCTA,0.138
CACGAATA,-0.192
AAATCTCC,-0.108
GCGCTCAC,0.202
AGAGAAGC,0.0267
GACTCAGC,-0.0194
ATTCAAAG,-0.169
CCTAGGGA,-0.198
AGTCAGCC,-0.0125
GGGAAAAA,0.0209
TGTCGTAA,-0.0599
AATACCCA,-0.314
CGACAATC,-0.116
CCGAGACG,0.207

# Study 3 — method: RNA Bind-n-Seq; molecule type: RNA; matrix: in vitro; tested at: 200 nM; setting: whole 134-nt RNA, ends assumed; added: 150 mM LiCl; relative to: input library; direction: higher = stronger binding; library: 7-deaza-guanosine replaces G
# Target: Ras GTPase-activating protein-binding protein 1, full length (G3BP1, Homo sapiens, UniProt Q13283)
# Sequence of UniProt Q13283 (whole entry, looked up): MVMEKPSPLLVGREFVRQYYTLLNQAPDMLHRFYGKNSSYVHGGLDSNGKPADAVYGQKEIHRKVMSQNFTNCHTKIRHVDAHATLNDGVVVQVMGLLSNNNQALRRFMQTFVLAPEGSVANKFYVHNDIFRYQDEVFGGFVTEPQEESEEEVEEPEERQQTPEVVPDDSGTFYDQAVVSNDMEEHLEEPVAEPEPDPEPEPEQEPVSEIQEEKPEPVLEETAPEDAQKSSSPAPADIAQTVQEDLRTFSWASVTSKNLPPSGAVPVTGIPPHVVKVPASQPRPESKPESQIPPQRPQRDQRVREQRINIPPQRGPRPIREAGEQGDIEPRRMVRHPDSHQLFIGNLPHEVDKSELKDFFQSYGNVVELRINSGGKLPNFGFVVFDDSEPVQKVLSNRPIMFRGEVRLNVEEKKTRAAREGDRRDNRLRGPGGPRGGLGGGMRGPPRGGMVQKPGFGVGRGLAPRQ
Sequence,log2 enrichment
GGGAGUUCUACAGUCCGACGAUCAAGUCCUGUGCUACACAUCGUAUGUACCGAAUCGGGAAAAAGGGUGGGUUUUUGGGAAAGUAUUAUGUUACGCCGUUCGGAUCUGCACUUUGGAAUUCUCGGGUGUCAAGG,-1.29
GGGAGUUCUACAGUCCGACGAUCCCUGUGCUACACAUCGUAUGUACCGAAUCAAAUUUUUAAAUUUUUUUAAACCCCCCCAAAAAAGUAUUAUGUUACGCCGUUCGGAUCUGCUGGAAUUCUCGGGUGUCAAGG,1.26
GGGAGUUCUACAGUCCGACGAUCCACAGAAAACACGCACCCACACAGACACAGAGGGAAGGGGUUGGGAUGGGGACAGGGUGCACAGCAGGGCGGGGUAGGACCCCAGCCCCUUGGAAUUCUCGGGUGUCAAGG,0.257
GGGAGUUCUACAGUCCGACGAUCGCAGGAAGUAAAAACAAAUGGAAAUGCUUCGGAUAGUGGCAGGGGUGGGGGUUGCUAAGGAAAGGGUGGGUUGGGAGUGGGUAAAGAGUUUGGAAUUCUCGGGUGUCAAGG,0.338
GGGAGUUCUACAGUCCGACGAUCAAGUCCUGUGCUACACAUCGUAUGUACCGAAUCGGGAAAGGGAAAAAAAGGGAGGGAAAGUAUUAUGUUACGCCGUUCGGAUCUGCACUUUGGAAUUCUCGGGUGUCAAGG,0.34
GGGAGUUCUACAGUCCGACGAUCGUCCUGUGCUACACAUCGUAUGUACCGAAUCGGGAAAAAGGGAAAAAAAGGGAAAGGGAAAGUAUUAUGUUACGCCGUUCGGAUCUGCACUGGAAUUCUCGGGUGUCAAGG,-0.17
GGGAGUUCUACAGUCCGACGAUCACCAUGCAGGUGGGCAUCUUAAAGAAGUGGGGCAAGGGGGGGAUAGGGAGGGGGGUAACACUUUGGGAACAGGUGGUCCCAGGUCGUUUCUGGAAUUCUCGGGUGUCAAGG,0.24
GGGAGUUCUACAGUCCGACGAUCUCCUGUGCUACACAUCGUAUGUACCGAAUCGGGGUUUUUGGGGUUUUUUUGGGGUGGGGAAAGUAUUAUGUUACGCCGUUCGGAUCUGCAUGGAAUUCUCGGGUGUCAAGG,0.735
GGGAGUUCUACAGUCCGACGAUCGUCCUGUGCUACACAUCGUAUGUACCGAAUCGGGGAAAGGGGUUUUUUUGGGGAGGGGAAAGUAUUAUGUUACGCCGUUCGGAUCUGCACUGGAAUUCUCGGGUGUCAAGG,-0.355
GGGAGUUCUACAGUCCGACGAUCCUCAAGUCCUGUGCUACACAUCGUAUGUACCGAAUCGGAAGGGGAAGGGAAGGAAAGUAUUAUGUUACGCCGUUCGGAUCUGCACUUCCAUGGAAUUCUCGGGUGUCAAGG,-0.241
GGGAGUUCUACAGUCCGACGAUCCCUCAAGUCCUGUGCUACACAUCGUAUGUACCGAAUCGGGGCGGCGGCGGGGAAAGUAUUAUGUUACGCCGUUCGGAUCUGCACUUCCAGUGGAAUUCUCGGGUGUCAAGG,0.042

# Study 4 — method: RNA Bind-n-Seq; molecule type: RNA; matrix: in vitro; tested at: 365 nM; relative to: no-protein control; direction: higher = stronger binding
# Target: RNA binding protein fox-1 homolog 2, RRM domain, GST-SBP tag (RBFOX2, Homo sapiens, UniProt O43251-10, residues 100-194)
# Setting: natural RNA segment, single round, ends assumed
# Target sequence (chain): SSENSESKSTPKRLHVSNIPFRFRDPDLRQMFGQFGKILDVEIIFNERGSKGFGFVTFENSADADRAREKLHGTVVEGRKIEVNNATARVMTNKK
Sequence,RBNS enrichment (R)
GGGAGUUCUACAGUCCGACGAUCGCAAAGGGCCUGUCCCCGGGCAGAAGAUGAAGCCCCUACCCGUGGACUGUGUGGUUCCAUCUCUGGCCAGGCCACUUCCAGCCAGCAAGGACACCAGAGGCUGCCUUAGCUGGAAUUCUCGGGUGCCAA,0.223
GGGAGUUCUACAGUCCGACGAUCGAAUGAACUGUAGAAAUGUUUUAAGGACCCAGAAACCCCAUAUGUCUCAUUCCAUGACUAUAGGUGAGAGAAUUCUUUCCUAAGAGGGUUUGAUACCAAUAGGGGAAAAUUGGAAUUCUCGGGUGCCAA,0.675
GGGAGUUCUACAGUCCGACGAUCACUUCAACUUUGGCAUUUCAUUCAUACUUCUGUAGAGAACGGAAAACUAUUGUCCAUUAACAUGAUAUGCUAAACAUUCUAUAAACAUUCUUGUAUUUAUGUGAGACUUGUGGAAUUCUCGGGUGCCAA,0.401
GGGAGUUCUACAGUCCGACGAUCCCCACCAUGCGCUGCUCAACCUCUCUCCUUCUGGCGCAAGAGAACAUUUCUAGAAAAAACUACUUUUGUACCAGUGUGAAUAAAGUUAGUGUGUUGUCUGUGCAGCUGCAUGGAAUUCUCGGGUGCCAA,0.235
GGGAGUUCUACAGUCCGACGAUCUGAAAGUGGCUUUUGACAGCUUCUCUCUUUUUGGUGUAAUGUUUUACAUGUCCUGUGUCCUGGGGACUAAUGUGUUAAUUGCCUUAAAUAAAUUAAUAGACUCCAAGUCCUGGAAUUCUCGGGUGCCAA,0.317
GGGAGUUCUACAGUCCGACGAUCUCCAGCCUCCGACCCCUCGCCCCAUGAAGGAGCUGGCAGGUGGAAAUAAACAACAACUUUAUUAAAACACCCGAGGCAGCCUUUUGCUUCCCCCUCCUUAGCCCUGUUCCUGGAAUUCUCGGGUGCCAA,0.907
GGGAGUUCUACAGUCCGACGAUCCCUCAGCACUGAGGAUUCUUGCCCCCUUGUGGUGCCCGCUGCCCCCAACCUUCAGGCUGCCAGAUGCUCCCCUGACAACACCAGGCUACAGGAGCCAGACGCCAGGGCCUUGGAAUUCUCGGGUGCCAA,0.431
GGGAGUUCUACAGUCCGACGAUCUCUCUCAGUAUGUGGGAAAUCCAGGCAAGUUUUAGAAUGUCCUAAAUUGAGCUAUUUUCACUUACUGUGUAACAGAGACAGAUAAUAAAUCUAUCAUUUGAUUUGAACUUUGGAAUUCUCGGGUGCCAA,0.545
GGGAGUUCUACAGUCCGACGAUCUAUAUAGGGGCACCCCAGACGCUGCAGUGACUUCAGCUAUCAACAAACUGUUAACCAUGUACAAUAUUGGAAAUAGGCUGAUUUUGAUGUAUUGCCUAUUCUUCAAGUACUGGAAUUCUCGGGUGCCAA,0.678
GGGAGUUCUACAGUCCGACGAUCCCCAGGCUGGAGUGCAGUGGCGUAGUCUCGGCUCACUGCAAGCUCCGCCUCCCGGGUUCACGCCGUUCUCCUGCCUCAGCCUCUCUGAGAAGCUGGGACUACAGGCGCCCUGGAAUUCUCGGGUGCCAA,0.136
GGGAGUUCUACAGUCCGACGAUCGGCCUCCGUGAGCAUCUUUGUAGCUAGCAAUGAGGAAGUGCAGGUGUCUACAGGCCAUCACGUGGGGAGGCGCACCAGGCGACAGAGGAUGUGGUGGCCUUCCUCCUAGGUGGAAUUCUCGGGUGCCAA,1.83
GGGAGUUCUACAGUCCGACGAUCUAAAAACAGUUCACCUGUAAAUACUUUUUCCUUUUUCACCGUUGUAUUAUACAUGUAUAUGCUGGGUCCUUUUUCAGAAACUCUUUUCUUACCUGAGAGUUGUCUUGUUUUGGAAUUCUCGGGUGCCAA,0.913

# Excerpt of the above (study 1):
Sequence,E-score
AAAGTATT,0.325
CATTGTCA,0.131
ACAAACAC,0.135
AAGCAATT,0.315
AGGCCCAG,-0.254
GTGCTGCA,-0.0623
CTCGGGGC,-0.329
TCCACGCA,-0.0783
